Measurements collected from several papers.
Each numbered part is a random draw from the data of one study; scales do not carry over between parts. Positions count from the first letter of the parent shown.

Set 1
Target: ABI1, truncated, D143A, DHFR fusion (Arabidopsis thaliana)
Technique: DHFR PCA, deep sequencing
Medium: yeast
Notes: methotrexate growth selection, single substitutions
With: (+)-ABA 1.4 µM
Relative to: wild-type fitted maximum
Reading: higher = stronger binding
Starting sequence: PYL1, truncated, DHFR fusion (Arabidopsis thaliana); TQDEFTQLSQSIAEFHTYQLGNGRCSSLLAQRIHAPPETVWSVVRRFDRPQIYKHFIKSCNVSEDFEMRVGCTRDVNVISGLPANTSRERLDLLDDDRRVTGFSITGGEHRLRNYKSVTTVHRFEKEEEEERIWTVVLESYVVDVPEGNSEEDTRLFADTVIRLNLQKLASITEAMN; partner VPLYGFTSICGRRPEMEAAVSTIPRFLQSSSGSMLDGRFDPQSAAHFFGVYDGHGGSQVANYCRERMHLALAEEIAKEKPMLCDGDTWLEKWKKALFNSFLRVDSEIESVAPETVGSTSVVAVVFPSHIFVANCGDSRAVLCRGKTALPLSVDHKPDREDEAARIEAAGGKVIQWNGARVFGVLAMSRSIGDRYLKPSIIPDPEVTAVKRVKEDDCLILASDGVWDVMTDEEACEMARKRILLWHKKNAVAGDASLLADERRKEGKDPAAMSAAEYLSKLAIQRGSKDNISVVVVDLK
| Change | relative binding score [%] |
| --- | --- |
| E125Q | 77.8 |
| E128S | 65.2 |
| E14R | 13.7 |
| E130D | 67.9 |
| S26P | 2.57 |
| F157S | 7.54 |
| Q10E | 79.2 |
| T160V | 5.52 |
| P83S | 19.5 |
| F66M | 22.3 |
| Q167E | 48.7 |
| C60I | 10.1 |
| D75F | 61.5 |
| T154E | -14.1 |
| V145M | -23.3 |
| I57R | -1.99 |

Set 2
Target: RING finger protein unkempt homolog, zinc fingers 1-6, GST-SBP tag (UNK, Homo sapiens, UniProt Q9C0B0, residues 30-357)
Chain of UniProt Q9C0B0 (30-357, looked up): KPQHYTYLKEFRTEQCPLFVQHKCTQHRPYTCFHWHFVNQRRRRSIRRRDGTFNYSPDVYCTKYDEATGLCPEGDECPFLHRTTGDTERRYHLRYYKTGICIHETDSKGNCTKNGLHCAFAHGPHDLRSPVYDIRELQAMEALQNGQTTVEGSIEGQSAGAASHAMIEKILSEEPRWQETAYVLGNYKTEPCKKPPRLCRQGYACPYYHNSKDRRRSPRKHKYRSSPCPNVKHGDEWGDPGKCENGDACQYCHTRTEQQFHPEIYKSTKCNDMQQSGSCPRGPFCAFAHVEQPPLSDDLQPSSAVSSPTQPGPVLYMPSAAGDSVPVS
Technique: RNA Bind-n-Seq
Form: RNA
Medium: in vitro
Tested at: not given
Notes: RNA with constant flanks, human-mouse chimeric sites, ends assumed
Relative to: input RNA pool
Reading: higher = stronger binding
| Sequence | bound/input enrichment |
| --- | --- |
| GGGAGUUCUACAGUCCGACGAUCAAAGAGAAAGCUAAAACAACUGAUUGAAAGAGGAUUGGCAAAGAGAAUUUCAUAGAGAAACUAGGAUUUAUUAGCAAACAUGAGUUAUAUUCCAGAGCGUCUCAGAAACCCCAGCCAAACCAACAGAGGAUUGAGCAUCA | 3.25 ratio |
| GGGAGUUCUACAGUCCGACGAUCUUGCUACUGACUCCCUGGGUCAAGUUCCUGUGGGAAUCAUACAGGCAGUGUUUGGACCUUCUUAGAAACAAUUCUAGAGUAGAGCGCCUUUACCAUGAUAUCGCCCAACAAGCUUUCAAACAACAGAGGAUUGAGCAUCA | 0.252 ratio |
| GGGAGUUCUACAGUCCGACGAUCGACAGUGAAGAAGAAAUUAGAGAAGCAUUCCGUGUGUUUGAUAAGGAUGGCAAUGGCUAUAUUAGUGCAGCAGAGCUUCGCCAUGUGAUGACAAACCUUGGAGAGAAGUUAACAGAUGAACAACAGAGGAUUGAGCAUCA | 4.78 ratio |
| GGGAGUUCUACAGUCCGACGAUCGGACAUCUGUCAAAUUGUAUUUCCCGUGUGAAACAAGUGAACACUCUGAUACACUUCAUUUAGUUGUACAUCUGUAUGAUAGAGAAAUGUAAAUAUGUUAAUCCAAGCAAUGUGUCACUUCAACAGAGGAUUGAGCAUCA | 0.31 ratio |
| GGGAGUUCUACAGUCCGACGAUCGGAAGUACAAUGAUGGAGAUUGAUGGUGACAAAGGCAAGCAGGGCGGGCCCACCUACUACAUAGACACCAAUGCCCUGCGUGUUCCGAGGGAGAACAUGGAGGCCAUUUCACCUCUAAAGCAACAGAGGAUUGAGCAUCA | 0.284 ratio |
| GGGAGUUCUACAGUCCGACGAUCAGAUUCCCCCUCCUGAGACCUCCUCCGAAGUUGGAGUCUCUUAUAGAUGCCUCAUCCCCUGUUAGCGUUUUGGUCUGGACCACCCAGCCUUGGACAAUUCCCGCCAACCAGGCAAUUUGCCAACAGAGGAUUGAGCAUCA | 0.434 ratio |
| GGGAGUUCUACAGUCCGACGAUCAAAGAACUUGCUGAUGAUGAAGAUGAGGAAGACAAUGAUGAUGUUGAACCCAUUUCUGAAUUUCGAUUUGUGCCCAGUGAUAAAUCAGCAUUGGAGGCGAUGUUCACAGCAAUGUGUGAGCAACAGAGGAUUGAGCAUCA | 0.304 ratio |
| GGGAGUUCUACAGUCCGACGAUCACAGUUAUAUUGUUGAGGUUUGUAUUUAUAUAUUCUUGUAGUGUCUGCUUGCCUGUGACUUCUGGUAAAAUAAAAUAAGCCUUUGAAUUAGCAUGCUCAUGGUAUUUAACAUUUUCUAAACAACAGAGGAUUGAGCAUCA | 1.05 ratio |
| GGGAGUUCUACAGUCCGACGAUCAGUACUGACUCAGGCGGAUUUUGCAACACCAAGCUCACAGCAGCAGCAUCUUAGUCACAGUAGGGUAGCUUUAGGGCUCUGUGGCCAGGGUUUUAUUCACAUGCAGGUUUGGAAAAUGUACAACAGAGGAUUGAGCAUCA | 0.593 ratio |
| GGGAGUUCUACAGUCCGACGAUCAUGGAGAAGGAUUCUCUGCCCCGCUUUGUGCGCUCUGAAUUUUAUAAGGAGCUAAUCAAGUAGUAAUCUGGUCAGGCUUCCAAAAGUUCCUGUGAGUGUUGAGUUACAUCCUUUGUAGCACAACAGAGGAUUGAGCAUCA | 0.227 ratio |
| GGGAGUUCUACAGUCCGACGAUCAAAGAACUUGCUGAUGAAGAAGAGGAAGAAGACAAUGAUGAUGUUGAACCCAUUUCUGAAUUUCGAUUUGUGCCCAGUGAUAAGUCAGCAUUGGAGGCGAUGUUCACAGCAAUGUGUGAGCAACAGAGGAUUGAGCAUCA | 0.382 ratio |

Set 3
Target: CCNA1, cyclin fold, Cln2 fusion (human)
Technique: yeast growth competition, sequencing
Medium: yeast
Notes: weak parent motif
Relative to: not given
Reading: higher = stronger binding
Starting sequence: PKN2 docking peptide (human); VSAVQKLDFSDTM; partner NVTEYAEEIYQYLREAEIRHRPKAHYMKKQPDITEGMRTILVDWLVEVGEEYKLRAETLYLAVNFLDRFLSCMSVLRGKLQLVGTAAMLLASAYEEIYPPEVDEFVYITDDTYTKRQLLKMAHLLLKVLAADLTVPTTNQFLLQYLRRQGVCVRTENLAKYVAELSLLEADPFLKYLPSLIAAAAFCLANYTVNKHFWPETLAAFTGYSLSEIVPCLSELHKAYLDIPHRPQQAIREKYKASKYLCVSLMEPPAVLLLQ
| Change | normalised enrichment score |
| --- | --- |
| VSAVQKLDFGDTM [S10G] | 0.39 |
| VSAVQKLLFSDTM [D8L] | 0.34 |
| VSAVQKLDFSRTM [D11R] | 0.294 |
| VSAGQKLDFSDTM [V4G] | -0.374 |
| VSAVQKLDFIDTM [S10I] | 0.225 |
| VSAVQKLDFSDKM [T12K] | 0.0974 |
| VSAVQKLDFSDTA [M13A] | 0.172 |
| VSAVQKLDFSDSM [T12S] | 0.371 |
| VSAVQKLDFSDYM [T12Y] | 0.152 |
| VSAVQLLDFSDTM [K6L] | 0.324 |
| VSAVQKLDFSDFM [T12F] | 0.238 |
| MSAVQKLDFSDTM [V1M] | 0.00109 |
| VSAVQKLDFSDGM [T12G] | 0.526 |
| VSAVQKLDFSITM [D11I] | -0.218 |
| VSAVQKLDFLDTM [S10L] | 0.0335 |
| VSAVQKMDFSDTM [L7M] | 0.169 |
| VSAVQKLDFSDTD [M13D] | -0.00306 |
| VSAVQKLDFHDTM [S10H] | 0.119 |
| VSAVQKLDASDTM [F9A] | 0.262 |
| VSAVQKLDFSDTN [M13N] | 0.203 |
| VSALQKLDFSDTM [V4L] | 0.542 |
| VSAVQKLKFSDTM [D8K] | 0.345 |
| VSAVQKLDFSDTY [M13Y] | 0.14 |
| VSAVQKLDFSDTE [M13E] | 0.178 |
| VSAVQKNDFSDTM [L7N] | -0.0244 |

Single results of other studies
| Molecule | target | assay | system | conditions | scale | quantity | value |
| --- | --- | --- | --- | --- | --- | --- | --- |
| PhoQ, residues 284 288 289 292 302 303 SMMNNA | PhoP, residues 12 14 15 18 19 IFFTR (Escherichia coli, UniProt P23836) | Sort-seq, item: YFP reporter | E. coli | PhoQ-PhoP variant library, with: 10 µM Mg2+ | relative to: high Mg2+ state, higher = stronger signaling | fold induction | 3.01 |

A few entries again (set 1):
| Change | relative binding score [%] |
| --- | --- |
| T154E | -14.1 |
| D75F | 61.5 |
| P83S | 19.5 |
| F157S | 7.54 |
